Published values pooled from the literature.
A part holds a random share of what one study measured. “And” joins repeats or separate records; there may be more than shown.
Chain of UniProt O96017 (whole entry, looked up): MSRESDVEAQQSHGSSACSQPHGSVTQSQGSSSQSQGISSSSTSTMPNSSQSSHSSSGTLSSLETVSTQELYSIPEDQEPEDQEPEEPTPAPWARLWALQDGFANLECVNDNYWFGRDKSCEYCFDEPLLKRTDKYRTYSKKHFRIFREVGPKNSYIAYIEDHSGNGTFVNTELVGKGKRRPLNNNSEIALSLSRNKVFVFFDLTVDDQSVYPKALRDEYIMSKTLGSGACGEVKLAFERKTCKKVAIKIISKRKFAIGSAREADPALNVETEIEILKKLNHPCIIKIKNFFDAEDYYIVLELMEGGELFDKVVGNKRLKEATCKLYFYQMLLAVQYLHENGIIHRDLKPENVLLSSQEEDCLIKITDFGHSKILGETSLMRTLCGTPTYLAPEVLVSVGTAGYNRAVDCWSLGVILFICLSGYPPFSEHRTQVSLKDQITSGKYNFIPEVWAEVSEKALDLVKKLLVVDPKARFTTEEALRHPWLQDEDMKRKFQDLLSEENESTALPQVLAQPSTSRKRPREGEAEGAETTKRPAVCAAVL
Chain of UniProt P11802 (whole entry, looked up): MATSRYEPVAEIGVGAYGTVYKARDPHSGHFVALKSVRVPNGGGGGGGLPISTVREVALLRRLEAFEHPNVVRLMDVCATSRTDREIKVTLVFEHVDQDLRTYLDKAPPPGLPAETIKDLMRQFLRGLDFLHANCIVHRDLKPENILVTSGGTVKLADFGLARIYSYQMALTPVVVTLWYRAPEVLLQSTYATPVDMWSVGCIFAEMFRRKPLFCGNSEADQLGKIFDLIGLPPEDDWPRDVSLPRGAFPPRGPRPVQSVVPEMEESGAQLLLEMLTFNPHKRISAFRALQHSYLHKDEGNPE
Chain of UniProt P36897 (whole entry, looked up): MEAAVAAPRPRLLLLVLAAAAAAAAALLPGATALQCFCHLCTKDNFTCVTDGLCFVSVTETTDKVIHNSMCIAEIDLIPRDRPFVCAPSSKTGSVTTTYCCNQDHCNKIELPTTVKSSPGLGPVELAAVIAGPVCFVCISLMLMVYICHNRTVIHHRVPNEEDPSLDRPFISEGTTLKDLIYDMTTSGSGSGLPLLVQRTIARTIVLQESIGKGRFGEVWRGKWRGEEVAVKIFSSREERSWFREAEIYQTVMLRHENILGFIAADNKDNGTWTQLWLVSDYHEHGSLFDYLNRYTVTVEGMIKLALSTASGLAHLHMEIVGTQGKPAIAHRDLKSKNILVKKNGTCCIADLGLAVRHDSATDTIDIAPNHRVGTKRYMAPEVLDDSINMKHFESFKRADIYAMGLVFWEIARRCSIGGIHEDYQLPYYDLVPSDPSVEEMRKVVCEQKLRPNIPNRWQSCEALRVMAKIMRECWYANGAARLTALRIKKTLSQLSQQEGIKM
Chain of UniProt Q96PN8 (whole entry, looked up): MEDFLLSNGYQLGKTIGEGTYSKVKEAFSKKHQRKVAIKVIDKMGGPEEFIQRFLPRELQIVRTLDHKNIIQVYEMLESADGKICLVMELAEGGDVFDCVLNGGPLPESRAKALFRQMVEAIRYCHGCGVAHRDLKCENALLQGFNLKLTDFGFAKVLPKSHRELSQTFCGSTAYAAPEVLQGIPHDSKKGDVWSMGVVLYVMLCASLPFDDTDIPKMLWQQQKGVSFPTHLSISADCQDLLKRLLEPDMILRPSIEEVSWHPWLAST
Chain of UniProt Q9UL54 (whole entry, looked up): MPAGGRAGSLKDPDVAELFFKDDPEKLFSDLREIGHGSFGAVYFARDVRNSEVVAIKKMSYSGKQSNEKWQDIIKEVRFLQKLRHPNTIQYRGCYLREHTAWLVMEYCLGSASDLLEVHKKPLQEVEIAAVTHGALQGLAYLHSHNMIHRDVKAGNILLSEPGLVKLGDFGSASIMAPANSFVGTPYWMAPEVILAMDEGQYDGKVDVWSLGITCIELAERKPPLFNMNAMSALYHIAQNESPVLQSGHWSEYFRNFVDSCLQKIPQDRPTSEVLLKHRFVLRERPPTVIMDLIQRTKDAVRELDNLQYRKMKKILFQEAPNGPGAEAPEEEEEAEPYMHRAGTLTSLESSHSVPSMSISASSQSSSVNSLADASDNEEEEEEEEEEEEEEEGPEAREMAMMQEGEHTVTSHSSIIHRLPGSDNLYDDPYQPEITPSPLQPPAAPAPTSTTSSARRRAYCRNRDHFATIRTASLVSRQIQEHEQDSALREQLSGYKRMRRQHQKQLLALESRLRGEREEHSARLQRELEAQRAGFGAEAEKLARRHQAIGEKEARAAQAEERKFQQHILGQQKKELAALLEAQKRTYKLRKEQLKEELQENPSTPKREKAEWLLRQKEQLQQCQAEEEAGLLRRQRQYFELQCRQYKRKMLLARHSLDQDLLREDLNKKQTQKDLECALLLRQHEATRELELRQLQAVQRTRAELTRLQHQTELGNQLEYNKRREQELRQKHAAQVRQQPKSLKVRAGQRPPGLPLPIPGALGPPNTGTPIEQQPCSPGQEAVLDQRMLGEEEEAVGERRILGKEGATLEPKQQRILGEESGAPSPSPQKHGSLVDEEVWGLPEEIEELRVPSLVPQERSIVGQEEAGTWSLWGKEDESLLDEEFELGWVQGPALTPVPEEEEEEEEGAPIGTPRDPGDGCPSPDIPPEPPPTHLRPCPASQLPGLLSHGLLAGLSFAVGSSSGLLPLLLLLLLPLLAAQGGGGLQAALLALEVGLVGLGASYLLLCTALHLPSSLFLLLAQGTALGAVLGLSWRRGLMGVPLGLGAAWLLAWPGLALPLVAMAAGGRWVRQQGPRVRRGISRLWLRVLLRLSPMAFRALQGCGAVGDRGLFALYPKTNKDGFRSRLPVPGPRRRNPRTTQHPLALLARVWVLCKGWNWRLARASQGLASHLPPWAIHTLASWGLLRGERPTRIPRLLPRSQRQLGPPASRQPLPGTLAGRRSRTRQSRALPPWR
Chain of UniProt O75676 (whole entry, looked up): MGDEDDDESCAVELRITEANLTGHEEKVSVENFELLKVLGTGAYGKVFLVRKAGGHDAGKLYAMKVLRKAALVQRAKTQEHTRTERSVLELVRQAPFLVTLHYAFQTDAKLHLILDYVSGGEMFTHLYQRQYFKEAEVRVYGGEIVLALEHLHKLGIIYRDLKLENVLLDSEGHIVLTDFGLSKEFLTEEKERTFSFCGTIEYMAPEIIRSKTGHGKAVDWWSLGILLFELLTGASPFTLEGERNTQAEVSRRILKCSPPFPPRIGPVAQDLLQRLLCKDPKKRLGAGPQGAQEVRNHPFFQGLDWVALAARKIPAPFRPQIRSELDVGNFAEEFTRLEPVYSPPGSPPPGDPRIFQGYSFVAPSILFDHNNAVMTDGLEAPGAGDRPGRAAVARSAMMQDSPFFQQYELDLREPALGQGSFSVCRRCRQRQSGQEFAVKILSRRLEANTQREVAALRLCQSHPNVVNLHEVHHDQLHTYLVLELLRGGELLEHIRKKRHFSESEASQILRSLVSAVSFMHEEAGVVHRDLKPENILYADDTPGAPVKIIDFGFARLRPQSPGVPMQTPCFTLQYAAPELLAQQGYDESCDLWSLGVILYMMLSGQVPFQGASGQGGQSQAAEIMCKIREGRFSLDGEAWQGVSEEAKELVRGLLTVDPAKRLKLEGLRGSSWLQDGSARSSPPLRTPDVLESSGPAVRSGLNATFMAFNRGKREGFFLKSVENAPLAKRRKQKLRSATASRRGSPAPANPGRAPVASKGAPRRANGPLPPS
Chain of UniProt O95835 (whole entry, looked up): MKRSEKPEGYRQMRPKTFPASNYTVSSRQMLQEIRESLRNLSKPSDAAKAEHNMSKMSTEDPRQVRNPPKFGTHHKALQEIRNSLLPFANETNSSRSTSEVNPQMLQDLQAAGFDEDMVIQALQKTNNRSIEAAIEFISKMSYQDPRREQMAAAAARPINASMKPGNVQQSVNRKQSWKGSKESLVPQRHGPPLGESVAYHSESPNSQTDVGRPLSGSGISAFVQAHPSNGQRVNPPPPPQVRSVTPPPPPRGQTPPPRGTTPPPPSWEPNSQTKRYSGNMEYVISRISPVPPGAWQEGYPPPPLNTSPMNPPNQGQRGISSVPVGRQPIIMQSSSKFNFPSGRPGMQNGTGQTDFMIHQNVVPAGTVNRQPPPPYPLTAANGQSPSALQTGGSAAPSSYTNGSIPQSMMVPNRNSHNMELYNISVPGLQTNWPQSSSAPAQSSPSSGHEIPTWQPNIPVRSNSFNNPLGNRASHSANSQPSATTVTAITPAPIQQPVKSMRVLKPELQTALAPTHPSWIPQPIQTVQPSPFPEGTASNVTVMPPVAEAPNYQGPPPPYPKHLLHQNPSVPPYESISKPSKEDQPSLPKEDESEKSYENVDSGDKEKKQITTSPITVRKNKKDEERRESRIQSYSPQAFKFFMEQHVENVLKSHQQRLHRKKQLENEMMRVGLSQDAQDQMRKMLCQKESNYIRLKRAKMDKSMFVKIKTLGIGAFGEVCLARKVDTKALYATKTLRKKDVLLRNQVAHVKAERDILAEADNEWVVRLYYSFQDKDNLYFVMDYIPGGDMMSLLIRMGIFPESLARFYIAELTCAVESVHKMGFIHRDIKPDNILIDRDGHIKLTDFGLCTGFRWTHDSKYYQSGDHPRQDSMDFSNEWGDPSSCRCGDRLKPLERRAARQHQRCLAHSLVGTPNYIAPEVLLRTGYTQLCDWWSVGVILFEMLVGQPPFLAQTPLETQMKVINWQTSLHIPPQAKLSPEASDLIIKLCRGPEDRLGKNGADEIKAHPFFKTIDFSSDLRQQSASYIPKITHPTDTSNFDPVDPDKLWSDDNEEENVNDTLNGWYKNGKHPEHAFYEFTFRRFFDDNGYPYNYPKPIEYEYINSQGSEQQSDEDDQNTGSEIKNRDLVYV

Block 1 — organism: Sarcocystis neurona; read-out: parasite activity; tested at: concentration not given
Compound | activity class
CC(CCCCC(=O)Nc1ccc(C(F)(F)F)cc1)NCCc1cnc[nH]1 (stereo not drawn) | inactive
CC(Cc1ccccc1)(NC(=O)CN)c1ccccc1.Cl (stereo not drawn) | inactive
COc1ccc(CC(C)NCC(O)c2ccc(O)c(NC=O)c2)cc1.COc1ccc(CC(C)NCC(O)c2ccc(O)c(NC=O)c2)cc1.O.O.O=C(O)/C=C/C(=O)O (stereo not drawn) | inactive
CCN1CC(CCN2CCOCC2)C(c2ccccc2)(c2ccccc2)C1=O.Cl (stereo not drawn) | inactive
CC[C@@H]1C(=O)OC[C@@H]1Cc1cncn1C.Cl | inactive
C#C[C@]1(O)CC[C@H]2[C@@H]3CCC4=CC(=O)CC[C@@H]4[C@H]3CC[C@@]21C | inactive

Block 2 — read-out: cell-free assay; method: competition with immobilised ligand; tested at: 0.1 µM
SMILES: C[C@H](c1ccnc(Nc2nc3ccc(-c4cc(N(C)C)ncn4)cc3[nH]2)c1)N1CCN(C(=O)CC(F)(F)F)CC1
target | remaining binding [%]
Cyclin-dependent kinase 4, with cyclin D1 (CDK4, Homo sapiens, UniProt P11802) | 100
Mitogen-activated protein kinase 15 (MAPK15, Homo sapiens, UniProt Q8TD08) | 100
Dual specificity protein kinase CLK4 (CLK4, Homo sapiens, UniProt Q9HAZ1) | 82
Testis-specific serine/threonine-protein kinase 3 (TSSK3, Homo sapiens, UniProt Q96PN8) | 74
Serine/threonine-protein kinase TAO2 (TAOK2, Homo sapiens, UniProt Q9UL54) | 100
Serine/threonine-protein kinase MRCK alpha (CDC42BPA, Homo sapiens, UniProt Q5VT25) | 99
Serine/threonine-protein kinase LATS1 (LATS1, Homo sapiens, UniProt O95835) | 100
Ribosomal protein S6 kinase alpha-4, N-terminal kinase domain (RPS6KA4, Homo sapiens, UniProt O75676) | 100
Epidermal growth factor receptor (EGFR, Homo sapiens, UniProt P00533, L858R/T790M) | 100
Transient receptor potential cation channel subfamily M member 6 (TRPM6, Homo sapiens, UniProt Q9BX84) | 100
Serine/threonine-protein kinase Chk2 (CHEK2, Homo sapiens, UniProt O96017) | 84
LIM domain kinase 2 (LIMK2, Homo sapiens, UniProt P53671) | 88
Inhibitor of nuclear factor kappa-B kinase subunit alpha (CHUK, Homo sapiens, UniProt O15111) | 95
TGF-beta receptor type-1 (TGFBR1, Homo sapiens, UniProt P36897) | 85
Phosphatidylinositol 4,5-bisphosphate 3-kinase catalytic subunit alpha isoform (PIK3CA, Homo sapiens, UniProt P42336, H1047Y) | 100
Ribosomal protein S6 kinase alpha-3, N-terminal kinase domain (RPS6KA3, Homo sapiens, UniProt P51812) | 100

Block 3 — read-out: enzyme activity; mode: inhibitor; tested at: 0.5 µM; relative to: control
Compound: Nc1nc(Nc2ccc(S(N)(=O)=O)cc2)nn1C(=O)c1c(F)cccc1F
target | remaining activity [%]
Serine/threonine-protein kinase Nek2 (NEK2, Homo sapiens, UniProt P51955) | 94.8
Mitogen-activated protein kinase kinase kinase 3 (MAP3K3, Homo sapiens, UniProt Q99759) | 27.5
Cyclin-dependent kinase 4, with cyclin D1 (CDK4, Homo sapiens, UniProt P11802) | 20
Serine/threonine-protein kinase OSR1 (OXSR1, Homo sapiens, UniProt O95747) | 88.8
TGF-beta receptor type-1 (TGFBR1, Homo sapiens, UniProt P36897) | 104
Serine/threonine-protein kinase Chk2 (CHEK2, Homo sapiens, UniProt O96017) | 63.6
Mitogen-activated protein kinase 9 (MAPK9, Homo sapiens, UniProt P45984) | 93.7
cAMP-dependent protein kinase catalytic subunit alpha (PRKACA, Homo sapiens, UniProt P17612) | 98.8

Other studies, line by line
Structure (SMILES) | tested on | assay | test system | setting | scale | enzyme activity
c1ccc2c(-c3nn4c(-c5ccncc5)nnc4s3)c[nH]c2c1 | alpha-galactosidase (human) |  | healthy dermal fibroblasts | 0.5 µM, with ISRIB | relative to: DMSO without ISRIB | 254% and 170% and 255% and 169% and 172% and 164% and 205% and 239%
Ic1ccc(Nc2nc(NCCN3CCOCC3)nc(N3CCOCC3)n2)cc1 | L444P/L444P Gaucher fibroblasts | 4-MUG hydrolysis in lysate |  | 0.1 µM, 72 h | relative to: vehicle | 105% and 96.5% and 101% and 115% and 111% and 104% and 94.8%
O=C(COc1ccc(Cl)cc1)NC1CCC(NC(=O)COc2ccc(Cl)cc2)CC1 (stereo not drawn) | L444P/L444P Gaucher fibroblasts | 4-MUG hydrolysis in lysate |  | 0.2 µM, 72 h | relative to: vehicle | 116% and 126% and 125% and 111% and 123%

A few entries again (block 2):
target | remaining binding [%]
Epidermal growth factor receptor (EGFR, Homo sapiens, UniProt P00533, L858R/T790M) | 100
Phosphatidylinositol 4,5-bisphosphate 3-kinase catalytic subunit alpha isoform (PIK3CA, Homo sapiens, UniProt P42336, H1047Y) | 100
Dual specificity protein kinase CLK4 (CLK4, Homo sapiens, UniProt Q9HAZ1) | 82
TGF-beta receptor type-1 (TGFBR1, Homo sapiens, UniProt P36897) | 85
